Measurements collected from several papers.
Compare with care: the assays were run in different laboratories. Numbers after ± are the reported error.
CXCR4: C-X-C chemokine receptor type 4 (CXCR4, Homo sapiens, UniProt P61073)
Thyrotropin-releasing hormone receptor: Thyrotropin-releasing hormone receptor (Mus musculus, UniProt P21761)
Chain of UniProt P21761 (whole entry, looked up): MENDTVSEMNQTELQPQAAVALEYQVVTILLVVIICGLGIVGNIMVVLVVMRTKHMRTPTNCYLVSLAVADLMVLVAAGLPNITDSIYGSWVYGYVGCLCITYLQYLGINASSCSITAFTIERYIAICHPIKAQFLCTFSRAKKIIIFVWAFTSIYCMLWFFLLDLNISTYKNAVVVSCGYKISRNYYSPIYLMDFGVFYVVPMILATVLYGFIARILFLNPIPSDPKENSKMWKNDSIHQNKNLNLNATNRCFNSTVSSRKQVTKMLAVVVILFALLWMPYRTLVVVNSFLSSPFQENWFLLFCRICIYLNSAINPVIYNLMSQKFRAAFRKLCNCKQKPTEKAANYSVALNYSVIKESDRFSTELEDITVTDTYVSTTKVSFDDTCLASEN
NR1H2 ligand-binding domain: Oxysterols receptor LXR-beta, ligand-binding domain (NR1H2, Homo sapiens, UniProt P55055)
Chain of UniProt P55055 (whole entry, looked up): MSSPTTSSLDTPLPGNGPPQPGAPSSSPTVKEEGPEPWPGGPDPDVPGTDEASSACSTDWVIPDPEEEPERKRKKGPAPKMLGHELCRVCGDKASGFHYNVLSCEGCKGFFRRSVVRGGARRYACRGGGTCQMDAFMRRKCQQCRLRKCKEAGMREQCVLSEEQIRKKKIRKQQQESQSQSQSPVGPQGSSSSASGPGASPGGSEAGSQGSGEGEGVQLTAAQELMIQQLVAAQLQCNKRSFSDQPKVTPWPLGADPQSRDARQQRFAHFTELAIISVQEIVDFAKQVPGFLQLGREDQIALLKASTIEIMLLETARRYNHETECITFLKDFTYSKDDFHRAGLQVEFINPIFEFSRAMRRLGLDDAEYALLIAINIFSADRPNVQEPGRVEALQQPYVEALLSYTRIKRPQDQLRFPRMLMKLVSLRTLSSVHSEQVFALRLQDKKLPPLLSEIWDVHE
FFAR3: Free fatty acid receptor 3 (FFAR3, Homo sapiens, UniProt O14843)
Chain of UniProt O14843 (whole entry, looked up): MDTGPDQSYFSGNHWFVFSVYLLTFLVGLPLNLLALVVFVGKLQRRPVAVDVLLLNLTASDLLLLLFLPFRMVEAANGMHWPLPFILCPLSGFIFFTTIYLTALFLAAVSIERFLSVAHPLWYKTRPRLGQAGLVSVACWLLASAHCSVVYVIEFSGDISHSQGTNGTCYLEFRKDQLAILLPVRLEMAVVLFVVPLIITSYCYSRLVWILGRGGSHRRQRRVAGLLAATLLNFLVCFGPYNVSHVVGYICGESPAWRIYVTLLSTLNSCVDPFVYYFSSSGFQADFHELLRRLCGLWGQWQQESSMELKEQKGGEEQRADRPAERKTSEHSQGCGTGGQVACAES
Chain of UniProt P30969 (whole entry, looked up): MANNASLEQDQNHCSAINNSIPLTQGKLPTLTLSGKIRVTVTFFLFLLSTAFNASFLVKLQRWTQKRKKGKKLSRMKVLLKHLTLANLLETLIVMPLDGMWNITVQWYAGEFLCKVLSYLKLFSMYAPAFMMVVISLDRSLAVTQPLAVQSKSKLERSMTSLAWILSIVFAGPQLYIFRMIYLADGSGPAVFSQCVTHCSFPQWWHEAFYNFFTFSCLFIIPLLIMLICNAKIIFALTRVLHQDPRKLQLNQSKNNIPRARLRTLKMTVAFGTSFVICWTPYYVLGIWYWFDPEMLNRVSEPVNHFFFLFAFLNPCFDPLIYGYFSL
Chain of UniProt Q9R1W5 (whole entry, looked up): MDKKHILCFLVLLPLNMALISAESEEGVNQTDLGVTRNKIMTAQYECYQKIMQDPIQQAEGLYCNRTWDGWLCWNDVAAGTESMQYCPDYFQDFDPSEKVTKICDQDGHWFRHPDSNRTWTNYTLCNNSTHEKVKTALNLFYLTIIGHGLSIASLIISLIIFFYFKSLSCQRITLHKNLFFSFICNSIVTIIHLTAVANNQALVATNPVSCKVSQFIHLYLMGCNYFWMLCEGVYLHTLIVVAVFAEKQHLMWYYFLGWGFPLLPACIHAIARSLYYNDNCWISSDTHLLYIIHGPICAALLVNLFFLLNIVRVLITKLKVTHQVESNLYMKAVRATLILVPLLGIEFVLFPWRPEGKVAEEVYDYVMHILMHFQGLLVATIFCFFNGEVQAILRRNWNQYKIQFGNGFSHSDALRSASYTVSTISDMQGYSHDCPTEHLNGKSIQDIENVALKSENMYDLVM
Chain of UniProt A7T1N0 (whole entry, looked up): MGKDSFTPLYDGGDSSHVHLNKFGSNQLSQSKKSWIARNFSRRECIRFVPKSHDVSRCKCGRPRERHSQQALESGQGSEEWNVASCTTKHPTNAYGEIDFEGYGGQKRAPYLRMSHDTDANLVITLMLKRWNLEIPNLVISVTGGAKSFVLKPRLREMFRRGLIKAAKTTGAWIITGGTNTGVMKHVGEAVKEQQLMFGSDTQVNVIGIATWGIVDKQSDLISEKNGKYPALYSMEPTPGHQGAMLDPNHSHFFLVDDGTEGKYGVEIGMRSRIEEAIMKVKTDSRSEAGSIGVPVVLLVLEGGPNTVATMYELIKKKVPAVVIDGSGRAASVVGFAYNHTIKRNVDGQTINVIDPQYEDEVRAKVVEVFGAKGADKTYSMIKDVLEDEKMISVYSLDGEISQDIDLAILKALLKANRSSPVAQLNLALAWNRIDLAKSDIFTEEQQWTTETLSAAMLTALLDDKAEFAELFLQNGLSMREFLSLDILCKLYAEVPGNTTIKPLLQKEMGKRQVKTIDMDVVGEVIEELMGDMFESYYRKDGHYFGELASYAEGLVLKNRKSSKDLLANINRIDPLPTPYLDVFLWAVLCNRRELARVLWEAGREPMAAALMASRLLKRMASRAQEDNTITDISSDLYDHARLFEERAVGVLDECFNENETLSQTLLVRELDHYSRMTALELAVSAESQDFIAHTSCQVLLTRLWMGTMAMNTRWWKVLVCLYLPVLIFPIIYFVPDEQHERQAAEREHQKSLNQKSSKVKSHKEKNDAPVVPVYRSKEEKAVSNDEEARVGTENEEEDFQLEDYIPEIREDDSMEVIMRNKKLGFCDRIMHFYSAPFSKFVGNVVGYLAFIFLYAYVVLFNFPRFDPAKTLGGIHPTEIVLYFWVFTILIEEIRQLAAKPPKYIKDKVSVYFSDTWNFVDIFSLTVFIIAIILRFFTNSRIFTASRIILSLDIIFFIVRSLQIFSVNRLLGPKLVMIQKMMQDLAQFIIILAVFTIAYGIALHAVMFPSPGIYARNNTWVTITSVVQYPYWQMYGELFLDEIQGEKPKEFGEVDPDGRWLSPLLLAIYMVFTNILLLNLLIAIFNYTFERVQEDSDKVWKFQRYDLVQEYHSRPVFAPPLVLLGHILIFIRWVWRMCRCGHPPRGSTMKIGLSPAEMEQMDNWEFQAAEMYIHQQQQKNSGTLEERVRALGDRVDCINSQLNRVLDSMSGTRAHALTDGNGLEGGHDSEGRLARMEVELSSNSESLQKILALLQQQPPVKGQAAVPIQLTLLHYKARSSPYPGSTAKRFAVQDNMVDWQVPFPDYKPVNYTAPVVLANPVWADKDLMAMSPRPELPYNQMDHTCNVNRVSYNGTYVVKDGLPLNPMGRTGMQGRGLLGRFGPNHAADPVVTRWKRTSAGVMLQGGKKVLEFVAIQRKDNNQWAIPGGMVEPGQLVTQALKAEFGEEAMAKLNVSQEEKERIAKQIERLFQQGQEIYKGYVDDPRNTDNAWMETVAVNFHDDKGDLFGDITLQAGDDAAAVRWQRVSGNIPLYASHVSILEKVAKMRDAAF
Chain of UniProt Q9WUP1 (whole entry, looked up): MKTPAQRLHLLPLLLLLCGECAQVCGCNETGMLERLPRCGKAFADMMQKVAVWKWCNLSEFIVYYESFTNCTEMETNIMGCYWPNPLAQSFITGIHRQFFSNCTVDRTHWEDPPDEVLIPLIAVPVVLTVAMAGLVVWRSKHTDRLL
Chain of UniProt P41586 (whole entry, looked up): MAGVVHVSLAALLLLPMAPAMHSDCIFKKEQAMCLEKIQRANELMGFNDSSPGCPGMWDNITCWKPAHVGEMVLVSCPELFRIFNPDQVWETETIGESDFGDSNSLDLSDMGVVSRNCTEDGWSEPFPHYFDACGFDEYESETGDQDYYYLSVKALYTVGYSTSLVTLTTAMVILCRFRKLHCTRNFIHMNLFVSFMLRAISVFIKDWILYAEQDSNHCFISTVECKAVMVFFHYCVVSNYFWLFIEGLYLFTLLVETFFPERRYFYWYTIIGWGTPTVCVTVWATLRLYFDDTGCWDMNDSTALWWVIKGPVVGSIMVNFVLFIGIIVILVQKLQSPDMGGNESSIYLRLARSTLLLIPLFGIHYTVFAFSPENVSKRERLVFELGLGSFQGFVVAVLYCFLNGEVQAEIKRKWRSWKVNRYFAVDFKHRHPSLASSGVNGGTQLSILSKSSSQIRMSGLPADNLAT
Chain of UniProt P32238 (whole entry, looked up): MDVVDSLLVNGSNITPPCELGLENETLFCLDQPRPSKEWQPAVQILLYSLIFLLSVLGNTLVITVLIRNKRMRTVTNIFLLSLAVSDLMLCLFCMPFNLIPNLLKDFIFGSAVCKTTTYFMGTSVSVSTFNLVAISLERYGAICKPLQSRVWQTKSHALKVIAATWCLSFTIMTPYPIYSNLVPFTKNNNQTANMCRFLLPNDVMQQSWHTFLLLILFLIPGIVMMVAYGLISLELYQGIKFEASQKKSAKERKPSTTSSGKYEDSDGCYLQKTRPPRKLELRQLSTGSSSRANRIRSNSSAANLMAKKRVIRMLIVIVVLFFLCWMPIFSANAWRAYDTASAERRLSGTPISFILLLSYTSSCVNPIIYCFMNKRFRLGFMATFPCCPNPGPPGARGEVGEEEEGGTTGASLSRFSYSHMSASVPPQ
Chain of UniProt P41149 (whole entry, looked up): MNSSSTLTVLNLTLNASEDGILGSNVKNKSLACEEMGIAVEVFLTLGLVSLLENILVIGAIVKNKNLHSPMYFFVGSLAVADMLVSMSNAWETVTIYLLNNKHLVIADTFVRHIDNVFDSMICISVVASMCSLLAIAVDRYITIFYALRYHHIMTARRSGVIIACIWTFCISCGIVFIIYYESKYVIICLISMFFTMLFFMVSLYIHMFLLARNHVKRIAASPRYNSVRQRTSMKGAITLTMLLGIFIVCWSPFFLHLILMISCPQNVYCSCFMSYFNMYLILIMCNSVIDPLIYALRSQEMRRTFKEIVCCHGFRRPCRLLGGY

| Structure (SMILES) | target | assay | test system | conditions | EC50 [µM] |
| --- | --- | --- | --- | --- | --- |
| CCCCc1ccc(C2=Nn3c(nnc3-c3ccccc3OC)SC2)cc1 | CXCR4 | β-arrestin recruitment, agonist |  |  | 14.1 |
| CCCn1cnc(C[C@H](NC(=O)c2cnc(C)cn2)C(=O)N2CCC[C@H]2C(N)=O)c1 | Thyrotropin-releasing hormone receptor | calcium signal, agonist, fluorescence |  |  | 4.46 |
| CC(=O)Nc1ccc(Sc2ncccc2C(=O)Nc2ccc(F)cc2)cn1 | CCKAR (Homo sapiens, UniProt P32238) |  | human cells |  | 6.5 |
| CC(=O)N[C@H](C(=O)N[C@@H](C)C(=O)N[C@@H](Cc1ccc(O)cc1)C(=O)N[C@H]1CSSC[C@@H](C(=O)N[C@@H](Cc2ccc(O)cc2)C(=O)N[C@@H](C)C(=O)N[C@@H](CCCNC(=N)N)C(N)=O)NC(=O)[C@H](Cc2ccccc2)NC(=O)[C@H](C)NC(=O)[C@H](CC(N)=O)NC(=O)[C@H](Cc2ccccc2)NC(=O)[C@H](Cc2ccccc2)NC(=O)[C@H](CCCNC(=N)N)NC1=O)[C@@H](C)O | Melanocortin receptor 5 (Mus musculus, UniProt P41149) | cAMP reporter gene, agonist | HEK293 |  | > 100 |
| O=C(NC[C@@H](Cc1ccc(F)cc1)N1CCC(O)(C(F)(F)F)CC1)C1(c2ccc(Cl)cc2)CCCC1 | TRPA1 (Homo sapiens, UniProt O75762) | calcium signal, agonist |  |  | 0.0065 |
| N#Cc1ccc(COc2cccc(C3CCN(Cc4nc5ccc(C(=O)O)cc5n4C[C@@H]4CCO4)CC3)n2)c(F)c1 | Glucagon-like peptide 1 receptor (Oryctolagus cuniculus, UniProt G1SGD4) | cAMP accumulation | CHO cells expressing target | free concentration | > 20 |
| CN(C(=O)c1cccc(C(F)(F)F)c1)c1ccc(C(O)(C(F)(F)F)C(F)(F)F)cc1 | NR1H2 ligand-binding domain | agonist |  | concentration not given | 3.1 ± 0.1 |
| CC[C@H](C)[C@H](NC(=O)[C@@H]1CCCN1C(=O)CNC(=O)[C@H](Cc1ccccc1)NC(=O)[C@H](CC(N)=O)NC(=O)[C@H](CC(N)=O)NC(=O)[C@H](CO)NC(=O)[C@H](CO)NC(=O)[C@H](Cc1c[nH]cn1)NC(=O)[C@@H](NC(=O)[C@H](CC(C)C)NC(=O)[C@H](Cc1ccccc1)NC(=O)[C@H](CC(N)=O)NC(=O)[C@H](C)NC(=O)[C@H](CC(C)C)NC(=O)[C@H](CCCNC(=N)N)NC(=O)[C@H](CCC(N)=O)NC(=O)[C@@H](NC(=O)[C@H](C)NC(=O)[C@@H]1CSSC[C@H](NC(=O)[C@@H](N)CCCCN)C(=O)N[C@@H](CC(N)=O)C(=O)N[C@@H]([C@@H](C)O)C(=O)N[C@@H](C)C(=O)N[C@@H]([C@@H](C)O)C(=O)N1)[C@@H](C)O)C(C)C)C(=O)N[C@@H](CC(C)C)C(=O)N1CCC[C@H]1C(=O)N1CCC[C@H]1C(=O)N[C@H](C(=O)N[C@@H](CC(N)=O)C(=O)N[C@H](C(=O)NCC(=O)N[C@@H](CO)C(=O)N[C@@H](CC(N)=O)C(=O)N[C@H](C(=O)N[C@@H](Cc1ccc(O)cc1)C(N)=O)[C@@H](C)O)C(C)C)[C@@H](C)O | Calcrl/Ramp3 (Mus musculus, UniProt Q9R1W5+Q9WUP1) | cAMP production, agonist | COS-7, transfected | 15 min, 37 °C, with: IBMX 1 mM | 0.0257 |
| Nc1ncnc2c1ncn2C1OC(COP(=O)(O)OP(=O)(O)OCC2OC(O)C(O)C2O)C(O)C1O (centres unmarked) | TRPM2 (Nematostella vectensis, UniProt A7T1N0) | channel activation, activator, inside-out patch clamp | Xenopus oocytes | with: 125 µM Ca2+ and 2.5 µM PIP2 | 1.5 ± 0.1 |
| CSCC(=O)O | FFAR3 | agonist |  |  | 617 |
| CCOc1ccccc1-c1nnc2n1N=C(c1ccc(N3CCCCC3)cc1)CS2 | CXCR4 | β-arrestin recruitment, agonist |  |  | > 10 |
| CN(C(=O)C(c1ccccc1)c1ccccc1)c1ccc(C(O)(C(F)(F)F)C(F)(F)F)cc1 | NR1H2 ligand-binding domain | agonist |  | concentration not given | > 10 |
| CN(C)CCCC[C@H](NC(=O)[C@H](Cc1ccccc1)NC(=O)[C@@H](N)CO)C(=O)N[C@@H](CC(N)=O)C(N)=O | NPSR1 (Homo sapiens, UniProt Q6W5P4, N107I) | calcium signal, agonist, fluorescence |  |  | 0.0435 |
| CC#CCC(=O)O | FFAR3 | cAMP, agonist, TR-FRET |  |  | 145 |
| NC(=O)CNC(=O)[C@@H]1CCCN1C(=O)[C@H](Cc1ccc(O)cc1)NC(=O)[C@H](Cc1c[nH]c2ccccc12)NC(=O)[C@@H](Cc1c[nH]c2ccccc12)NC(=O)[C@H](Cc1c[nH]cn1)NC(=O)[C@H](CO)NC(=O)[C@H](Cc1c[nH]c2ccccc12)NC(=O)[C@H](Cc1c[nH]cn1)NC(=O)[C@@H]1CCC(=O)N1 | Gonadotropin-releasing hormone receptor (Rattus norvegicus, UniProt P30969) | inositol phosphate accumulation, agonist | HEK293 expressing Gonadotropin-releasing hormone receptor | 60 min, 37 °C, with: 10 mM LiCl | 0.0059 ± 0.0009 |
| CC(C)n1cnc(C[C@H](NC(=O)c2cnccn2)C(=O)N2CCC[C@H]2C(N)=O)c1 | Thyrotropin-releasing hormone receptor | calcium signal, agonist, fluorescence |  |  | 0.001 |
| CC[C@H](C)[C@H](NC(=O)CNC(=O)[C@H](CC(=O)O)NC(=O)[C@H](CO)NC(=O)C=Cc1c[nH]cn1)C(=O)N[C@@H](Cc1ccccc1)C(=O)N[C@H](C(=O)N[C@@H](CC(=O)O)C(=O)N[C@@H](CO)C(=O)N[C@@H](Cc1ccc(O)cc1)C(=O)N[C@@H](CO)C(=O)N[C@@H](CCCNC(=N)N)C(=O)N[C@@H](Cc1ccc(O)cc1)C(=O)N[C@@H](CCCNC(=N)N)C(=O)N[C@@H](CCCCN)C(=O)N[C@@H](CCC(N)=O)C(=O)N[C@@H](CCSC)C(=O)N[C@@H](C)C(=O)N[C@H](C(=O)N[C@@H](CCCCN)C(=O)N[C@@H](CCCCN)C(=O)N[C@@H](C)C(=O)N[C@@H](CC(C)C)C(=O)N[C@@H](C)C(=O)N[C@@H](C)C(=O)N[C@H](C(=O)N[C@@H](CC(C)C)C(=O)NCC(=O)N[C@@H](CCCCN)C(=O)N[C@@H](CCCNC(=N)N)C(=O)N[C@@H](Cc1ccc(O)cc1)C(=O)N[C@@H](CCCCN)C(=O)N[C@@H](CCC(N)=O)C(=O)N[C@@H](CCCNC(=N)N)C(=O)N[C@H](C(=O)N[C@@H](CCCCN)C(=O)N[C@@H](CC(N)=O)C(=O)N[C@@H](CCCCN)C(N)=O)C(C)C)C(C)C)C(C)C)[C@@H](C)O | ADCYAP1R1 (Homo sapiens, UniProt P41586) | cAMP, agonist, radiometric |  |  | 0.00246 |

Excerpt of the above:
| Structure (SMILES) | target | assay | test system | conditions | EC50 [µM] |
| --- | --- | --- | --- | --- | --- |
| CC(C)n1cnc(C[C@H](NC(=O)c2cnccn2)C(=O)N2CCC[C@H]2C(N)=O)c1 | Thyrotropin-releasing hormone receptor | calcium signal, agonist, fluorescence |  |  | 0.001 |
